Measured values gathered from unrelated publications.
Compare with care: the assays were run in different laboratories.
Target: Wee1-like protein kinase (WEE1, Homo sapiens, UniProt P30291)

CS(=O)(=O)Nc1cccc(-c2csc3cnc(Nc4ccc(N5CCN(CCCCCOc6cccc7c6C(=O)N(C6CCC(=O)NC6=O)C7=O)CC5)cc4)nc23)c1 (stereo not drawn) — inhibition (target engagement in cells; MOLT-4; 1 µM): > 75%
CNC(=O)C1CCN(c2cc(C)c(F)cc2NC(=O)c2ccc(-c3cc(O)ccc3C)c(C)c2)CC1 — remaining binding (binding, competition with immobilised ligand; 1 µM): 100%
CN1CCN(Cc2ccc(-c3ccc(CO[C@H]4CCC[C@@H]4NC(=O)c4cc(-c5cnn(C)c5)cnc4N)cc3)cc2)CC1 — inhibition (enzyme activity, inhibitor; 0.1 µM): 3%
COc1ccc(O)cc1-c1c[nH]c2ncc(-c3cncc(C(=O)N(C)C)c3)cc12 — inhibition (binding, competition with immobilised ligand; 0.2 µM): 6.13%
COc1cc(Nc2nccc(-c3cnn4nc(OC)ccc34)n2)cc(C(F)(F)F)c1 — remaining binding (binding, competition with immobilised ligand; 1 µM): 98%
COc1c(Cl)cccc1Nc1c(-c2ccncc2C#C[C@@]2(C)CCCN2C(=O)/C=C/CN(C)C)[nH]c2c1C(=O)NCC2 — remaining binding (binding, competition with immobilised ligand; 3 µM): 100%
NC(=O)C[C@H]1CCc2sc3ncnc(O[C@H]4CC[C@H](N5CCOCC5)CC4)c3c21 — inhibition (enzyme activity, inhibitor; 10 µM): -3%
CCn1cc(C(=O)O)c(=O)c2c(N)c(F)c(NC3CCCCC3)cc21 — inhibition (kinase activity; 0.1 µM, together with: ATP at Km): -0.2%
C=CC(=O)N1CCc2ccc(-n3c(=O)ccc4cnc5ccc(-c6cnn(C)c6)cc5c43)cc21 — remaining binding (KINOMEscan; 1 µM; baseline: DMSO control): 95%
CNC(=O)C[C@H](Cc1ccc(C#N)cc1)NC(=O)c1cc(-c2ccc(CN[C@H](C)c3ccc(C)cc3)o2)ccc1Cl — activity vs control (enzyme activity, inhibitor; 1 µM): 106%
Cc1cnc2nc1Nc1cccc(c1)COC/C=C/COCc1cc(ccc1OCCN1CCOCC1)N2 — remaining binding (binding, competition with immobilised ligand; 0.1 µM): 97%
C=CC(=O)N1CCCC(n2c(=O)c3ncccc3n(Cc3ccc(Oc4ccccc4)cc3)c2=O)C1 (stereo not drawn) — remaining binding (cell-free assay, competition with immobilised ligand; 1 µM): 75%
Cc1nc2c(F)cc(-c3nc(Nc4ccc(CNC(=O)CCCCCCC(=O)NO)cc4)ncc3F)cc2n1C(C)C — inhibition (enzyme activity, inhibitor; 1 µM): 28%
Cc1ccc(C(=O)Nc2ccc(CN3CCN(C)CC3)c(C(F)(F)F)c2)cc1C#Cc1cnc2cccnn12 — upper asymptote (target engagement, NanoBRET; human cells): 3.2
CCN1CCN(Cc2ccc(NC(=O)c3ccc(C)c(NC(=O)c4cncc(-c5cnn(C)c5)c4)c3)cc2C(F)(F)F)CC1 — remaining binding (binding, competition with immobilised ligand; 1 µM): 95%

Repeated from above:
Cc1nc2c(F)cc(-c3nc(Nc4ccc(CNC(=O)CCCCCCC(=O)NO)cc4)ncc3F)cc2n1C(C)C — inhibition (enzyme activity, inhibitor; 1 µM): 28%
